Published values from different studies.
Lines come from different studies, so protocols differ. “And” joins repeats or separate records; there may be more than shown. ± marks the error that the study gave.
UniProt Q9Y2J8, sequence (whole entry, looked up): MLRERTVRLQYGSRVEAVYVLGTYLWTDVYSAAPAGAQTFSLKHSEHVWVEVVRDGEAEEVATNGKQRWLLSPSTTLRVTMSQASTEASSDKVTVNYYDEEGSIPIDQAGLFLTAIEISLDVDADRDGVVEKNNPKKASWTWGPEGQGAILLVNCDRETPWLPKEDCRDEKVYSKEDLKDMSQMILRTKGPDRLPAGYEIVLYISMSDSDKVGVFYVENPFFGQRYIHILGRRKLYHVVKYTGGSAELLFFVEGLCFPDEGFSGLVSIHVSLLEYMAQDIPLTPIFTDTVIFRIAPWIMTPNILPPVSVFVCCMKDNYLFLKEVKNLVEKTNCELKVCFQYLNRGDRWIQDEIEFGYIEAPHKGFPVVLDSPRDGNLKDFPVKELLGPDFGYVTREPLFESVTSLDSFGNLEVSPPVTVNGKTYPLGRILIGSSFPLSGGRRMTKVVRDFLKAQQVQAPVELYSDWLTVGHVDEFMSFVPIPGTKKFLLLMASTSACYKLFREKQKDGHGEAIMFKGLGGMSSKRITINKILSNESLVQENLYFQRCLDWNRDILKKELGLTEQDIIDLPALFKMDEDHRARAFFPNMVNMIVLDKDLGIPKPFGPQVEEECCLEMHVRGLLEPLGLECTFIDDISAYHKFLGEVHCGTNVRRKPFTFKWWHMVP
UniProt P10721, sequence (whole entry, looked up): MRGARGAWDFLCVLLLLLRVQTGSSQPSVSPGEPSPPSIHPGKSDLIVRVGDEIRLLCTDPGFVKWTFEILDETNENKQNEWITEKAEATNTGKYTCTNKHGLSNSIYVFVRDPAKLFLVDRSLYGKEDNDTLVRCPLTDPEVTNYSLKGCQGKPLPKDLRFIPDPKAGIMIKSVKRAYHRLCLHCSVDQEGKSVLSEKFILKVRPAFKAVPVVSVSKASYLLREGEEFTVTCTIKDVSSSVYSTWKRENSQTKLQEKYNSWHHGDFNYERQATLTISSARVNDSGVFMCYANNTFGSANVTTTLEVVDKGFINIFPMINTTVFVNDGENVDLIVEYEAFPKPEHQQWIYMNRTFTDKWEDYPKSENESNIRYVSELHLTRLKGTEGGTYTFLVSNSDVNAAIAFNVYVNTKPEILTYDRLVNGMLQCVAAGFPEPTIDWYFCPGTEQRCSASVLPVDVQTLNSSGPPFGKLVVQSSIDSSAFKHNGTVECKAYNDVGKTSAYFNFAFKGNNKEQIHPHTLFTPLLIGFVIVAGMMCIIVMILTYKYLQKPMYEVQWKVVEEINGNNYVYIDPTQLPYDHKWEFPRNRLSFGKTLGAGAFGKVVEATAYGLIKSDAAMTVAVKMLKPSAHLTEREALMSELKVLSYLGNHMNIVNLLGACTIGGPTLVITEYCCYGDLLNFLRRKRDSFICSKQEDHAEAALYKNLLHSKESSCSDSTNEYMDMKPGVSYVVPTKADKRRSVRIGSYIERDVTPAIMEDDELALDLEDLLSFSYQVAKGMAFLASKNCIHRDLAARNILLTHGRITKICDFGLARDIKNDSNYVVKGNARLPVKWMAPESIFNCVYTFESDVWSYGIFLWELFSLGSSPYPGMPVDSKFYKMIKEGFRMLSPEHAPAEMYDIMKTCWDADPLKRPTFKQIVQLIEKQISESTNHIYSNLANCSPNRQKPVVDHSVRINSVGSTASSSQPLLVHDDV
UniProt P33533, sequence (whole entry, looked up): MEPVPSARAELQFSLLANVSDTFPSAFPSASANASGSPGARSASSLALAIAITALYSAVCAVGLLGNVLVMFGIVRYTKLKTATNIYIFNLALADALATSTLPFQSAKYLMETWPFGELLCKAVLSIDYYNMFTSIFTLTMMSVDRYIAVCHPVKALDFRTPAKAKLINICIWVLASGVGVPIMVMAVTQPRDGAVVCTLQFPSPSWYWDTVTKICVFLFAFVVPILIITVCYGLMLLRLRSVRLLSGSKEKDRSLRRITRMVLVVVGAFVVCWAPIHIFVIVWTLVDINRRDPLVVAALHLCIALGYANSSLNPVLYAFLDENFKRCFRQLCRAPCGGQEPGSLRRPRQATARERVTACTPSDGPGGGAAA
UniProt P24723, sequence (whole entry, looked up): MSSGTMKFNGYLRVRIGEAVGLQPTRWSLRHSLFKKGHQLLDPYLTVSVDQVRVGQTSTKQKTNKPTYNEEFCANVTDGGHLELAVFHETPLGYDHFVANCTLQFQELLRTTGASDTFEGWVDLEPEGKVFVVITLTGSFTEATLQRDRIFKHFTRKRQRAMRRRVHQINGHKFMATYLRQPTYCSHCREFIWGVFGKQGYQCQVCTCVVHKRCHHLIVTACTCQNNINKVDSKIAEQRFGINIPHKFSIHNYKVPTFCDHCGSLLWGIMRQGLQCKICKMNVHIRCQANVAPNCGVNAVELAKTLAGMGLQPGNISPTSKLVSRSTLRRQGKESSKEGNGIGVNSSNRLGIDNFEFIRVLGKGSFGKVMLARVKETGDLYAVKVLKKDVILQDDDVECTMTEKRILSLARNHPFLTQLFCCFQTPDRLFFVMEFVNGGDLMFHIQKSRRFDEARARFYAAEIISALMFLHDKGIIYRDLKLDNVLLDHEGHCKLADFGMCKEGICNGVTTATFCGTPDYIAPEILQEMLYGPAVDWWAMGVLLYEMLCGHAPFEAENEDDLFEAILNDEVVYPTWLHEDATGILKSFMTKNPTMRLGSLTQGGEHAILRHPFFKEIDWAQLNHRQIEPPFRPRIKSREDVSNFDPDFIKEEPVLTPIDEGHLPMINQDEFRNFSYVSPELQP
UniProt P35348, sequence (whole entry, looked up): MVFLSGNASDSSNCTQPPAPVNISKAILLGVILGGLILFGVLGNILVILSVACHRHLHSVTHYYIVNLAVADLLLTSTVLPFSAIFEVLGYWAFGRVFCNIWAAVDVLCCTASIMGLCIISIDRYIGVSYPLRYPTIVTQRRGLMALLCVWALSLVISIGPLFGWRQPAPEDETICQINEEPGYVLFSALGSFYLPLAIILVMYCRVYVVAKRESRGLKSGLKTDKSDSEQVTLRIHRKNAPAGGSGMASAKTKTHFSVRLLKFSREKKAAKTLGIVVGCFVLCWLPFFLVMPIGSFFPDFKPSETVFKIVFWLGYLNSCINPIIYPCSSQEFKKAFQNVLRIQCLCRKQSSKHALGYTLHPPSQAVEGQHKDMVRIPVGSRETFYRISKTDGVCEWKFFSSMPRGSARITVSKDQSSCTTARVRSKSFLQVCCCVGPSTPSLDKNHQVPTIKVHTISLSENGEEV
UniProt P10144, sequence (whole entry, looked up): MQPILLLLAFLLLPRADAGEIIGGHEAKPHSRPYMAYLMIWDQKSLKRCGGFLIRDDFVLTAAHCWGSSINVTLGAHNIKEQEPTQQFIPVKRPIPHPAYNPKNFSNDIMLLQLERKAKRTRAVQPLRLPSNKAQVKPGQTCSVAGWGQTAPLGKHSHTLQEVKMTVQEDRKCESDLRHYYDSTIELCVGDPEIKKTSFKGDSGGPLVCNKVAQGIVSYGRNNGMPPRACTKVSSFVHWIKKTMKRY
UniProt Q8IWQ3, sequence (whole entry, looked up): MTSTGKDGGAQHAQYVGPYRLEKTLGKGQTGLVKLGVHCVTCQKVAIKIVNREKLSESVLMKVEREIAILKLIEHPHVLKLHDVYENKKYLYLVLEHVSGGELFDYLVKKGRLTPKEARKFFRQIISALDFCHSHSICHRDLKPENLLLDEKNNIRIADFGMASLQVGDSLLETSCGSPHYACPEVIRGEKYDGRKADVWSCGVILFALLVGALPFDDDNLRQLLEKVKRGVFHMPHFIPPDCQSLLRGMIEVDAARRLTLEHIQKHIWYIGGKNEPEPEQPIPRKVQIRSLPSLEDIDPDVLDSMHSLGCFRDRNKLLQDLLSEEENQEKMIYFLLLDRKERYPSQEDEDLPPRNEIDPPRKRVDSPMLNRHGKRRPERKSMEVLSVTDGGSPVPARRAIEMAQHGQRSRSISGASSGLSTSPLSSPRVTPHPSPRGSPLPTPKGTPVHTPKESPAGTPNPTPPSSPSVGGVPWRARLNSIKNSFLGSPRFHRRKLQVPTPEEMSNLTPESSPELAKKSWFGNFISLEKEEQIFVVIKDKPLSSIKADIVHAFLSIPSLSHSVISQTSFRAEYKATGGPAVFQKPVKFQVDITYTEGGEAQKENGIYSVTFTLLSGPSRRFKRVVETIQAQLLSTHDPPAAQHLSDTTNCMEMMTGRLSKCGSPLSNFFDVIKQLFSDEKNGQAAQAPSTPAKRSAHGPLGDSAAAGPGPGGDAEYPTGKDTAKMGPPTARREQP
UniProt Q9NRA0, sequence (whole entry, looked up): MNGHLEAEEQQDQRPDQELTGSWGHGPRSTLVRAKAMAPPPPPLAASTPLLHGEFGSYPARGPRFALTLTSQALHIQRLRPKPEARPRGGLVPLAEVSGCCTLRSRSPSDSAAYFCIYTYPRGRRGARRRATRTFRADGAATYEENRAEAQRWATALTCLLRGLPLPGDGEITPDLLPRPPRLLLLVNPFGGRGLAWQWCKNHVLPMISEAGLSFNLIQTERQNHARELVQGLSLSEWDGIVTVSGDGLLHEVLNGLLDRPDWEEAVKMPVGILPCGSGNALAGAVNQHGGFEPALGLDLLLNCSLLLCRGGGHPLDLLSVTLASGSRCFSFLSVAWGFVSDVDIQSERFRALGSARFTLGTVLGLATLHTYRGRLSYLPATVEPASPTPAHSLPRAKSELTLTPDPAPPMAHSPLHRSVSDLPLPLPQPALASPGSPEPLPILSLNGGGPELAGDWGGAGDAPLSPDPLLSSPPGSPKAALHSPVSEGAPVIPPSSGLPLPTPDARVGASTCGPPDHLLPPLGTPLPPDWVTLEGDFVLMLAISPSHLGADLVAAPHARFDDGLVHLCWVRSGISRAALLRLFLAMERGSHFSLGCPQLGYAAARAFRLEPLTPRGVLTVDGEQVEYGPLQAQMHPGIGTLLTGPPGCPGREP
UniProt P38489, sequence (whole entry, looked up): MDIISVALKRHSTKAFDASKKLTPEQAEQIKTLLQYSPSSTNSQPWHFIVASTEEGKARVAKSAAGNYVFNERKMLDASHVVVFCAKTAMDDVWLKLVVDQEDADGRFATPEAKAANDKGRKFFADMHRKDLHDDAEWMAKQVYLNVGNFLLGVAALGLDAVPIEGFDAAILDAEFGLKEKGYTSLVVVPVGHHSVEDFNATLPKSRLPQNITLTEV

SMILES | tested on | assay | test system | conditions | scale | measurement | value
N[C@H](C(=O)N1CCCC1)C1CCN(c2nccc3c(-c4ncc(Cl)cc4Cl)cccc23)CC1 | Protein-arginine deiminase type-2 (PADI2, Homo sapiens, UniProt Q9Y2J8) | enzyme activity |  | 0.01573 µM, added: Ca2+ 0.25 mM |  | kcat | 0.967 s⁻¹ and 0.985 s⁻¹
CS(C)(=O)=Nc1ccc(-c2ccc(-c3nc4cc(O[C@@H]5CO[C@H]6[C@@H]5OC[C@H]6O)[nH]c4cc3F)cc2)cc1 | Serine/threonine-protein kinase BRSK2 (BRSK2, Homo sapiens, UniProt Q8IWQ3) | enzyme activity, inhibitor |  | 10 µM |  | inhibition | 16%
CCOC(=O)[C@@H]1Cc2c(cc([N+](=O)[O-])cc2[N+](=O)[O-])[C@H](O)[C@]12C(=O)Nc1ccc(Br)cc12 | MAP kinase-interacting serine/threonine-protein kinase 2 (MKNK2, Homo sapiens, UniProt Q9HBH9) | binding, competition with immobilised ligand |  | 0.1 µM |  | remaining binding | 100%
C[C@H](NCc1ccc(-c2ccc(C(F)(F)F)cc2)cc1)C(N)=O | Mast/stem cell growth factor receptor Kit (KIT, Homo sapiens, UniProt P10721) | cell-free assay, competition with immobilised ligand |  | 1 µM |  | inhibition | 0%
CN(C)[C@H]1C[C@@]23CC[C@@]4(O2)C(=CC[C@]2(C)[C@@H](c5ccc6ccncc6c5)CC[C@H]24)C=C3[C@@H](O)[C@@H]1O | Tyrosine-protein kinase SYK (SYK, Homo sapiens, UniProt P43405) | ATP probe labelling, inhibitor, KiNativ profiling |  | 1 µM |  | inhibition | -0.9%
CC(C)[C@H]1NC(=O)C[C@H]2/C=C/CCSSC[C@@H](NC1=O)C(=O)N[C@H](Cc1cccc3ccccc13)C(=O)NCC(=O)O2 | Sphingosine kinase 2 (SPHK2, Homo sapiens, UniProt Q9NRA0) | enzyme activity, inhibitor |  | 10 µM |  | inhibition | 5.8%
COc1ccccc1-n1c(SCC(=O)Nc2ccccc2F)nc2cccnc21 | Dihydroorotate dehydrogenase (quinone), mitochondrial (PFF0160c, Plasmodium falciparum, UniProt Q08210, E182D) | enzyme activity, DCIP colorimetric |  |  | relative to: E182D mutant over wild type | IC50 ratio | 3.6
CCc1nnc(-c2c(OC)cc(-c3cnc4cc(-c5cnn(C)c5)ccn34)cc2OC)o1 | Alpha-1A adrenergic receptor (ADRA1A, Homo sapiens, UniProt P35348) | antagonist radioligand, radioligand binding |  | 10 µM, SafetyScreen44 alpha 1 A mean | lower = stronger displacement | remaining binding | 58.9%
O=C1NC2(CC2)COc2ncc(F)cc2[C@H]2COCCN2c2ccn3ncc1c3n2 |  |  | Sprague-Dawley rat, female, ovaries | oral, 5 mg/kg/day, 4 weeks |  | organ weight | 0.129 ± 0.021 g
COc1c(N2CC3CCCNC3C2)c(F)cc2c(=O)c(C(=O)OCc3ccc([N+](=O)[O-])s3)cn(C3CC3)c12 (stereo not drawn) | Oxygen-insensitive NAD(P)H nitroreductase (nfsB, Escherichia coli K-12, UniProt P38489) | substrate |  | added: NADH 100 µM |  | kcat | 0.86 s⁻¹
O=C1NC(=O)c2c1c1cc(F)c[n+]3c1c1c2c2cc(O)ccc2[n]1[Ru-4]312([N]=C=S)[S+]3CC[S+]1CC[S+]2CC3 (stereo not drawn) | Protein kinase C eta type (PRKCH, Homo sapiens, UniProt P24723) | enzyme activity |  | 100 nM, human enzyme, added: 10 µM ATP | relative to: untreated | remaining activity | 84%
N[C@H](Cc1ccccc1)P(=O)(O)O | PAL1 (Petroselinum crispum, UniProt P24481, Y110F) | binding, ITC |  |  |  | -TΔS | 0.1 kcal/mol
CN(C)CCCSC(=S)N1CCN(C(=O)/C=C/c2coc3ccccc3c2=O)CC1 | Nucleoprotein (N, Tomato spotted wilt virus, UniProt P25999, Y184A) | binding, microscale thermophoresis |  | 1.953 µM | dose series | MST response | 838 a.u.
CC[C@H](C)[C@H](NC(C)=O)C(=O)N[C@@H](CCC(=O)O)C(=O)N1CCC[C@H]1C(=O)NC(CS(=O)(=O)O)P(=O)(Oc1ccccc1)Oc1ccccc1 (stereo partly drawn) | Granzyme B (GZMB, Homo sapiens, UniProt P10144) | enzyme activity, inhibitor, FRET |  |  |  | kinact | 0.000783 s⁻¹
C[C@@H](O)[C@@H]1CN([C@@H](CC2CCCCC2)CN2CCC[C@H]2CN2CCNC[C@@H]2CO)CCN1CCCC1CCCC1 | Delta-type opioid receptor (Oprd1, Rattus norvegicus, UniProt P33533) | radioligand binding | rat brain membranes | 500 nM, pH 7.5, 25 °C, added: 2 nM [3H]DPDPE |  | remaining binding | 90.3%

Excerpt of the above:
SMILES | tested on | assay | test system | conditions | scale | measurement | value
C[C@H](NCc1ccc(-c2ccc(C(F)(F)F)cc2)cc1)C(N)=O | Mast/stem cell growth factor receptor Kit (KIT, Homo sapiens, UniProt P10721) | cell-free assay, competition with immobilised ligand |  | 1 µM |  | inhibition | 0%
